Measurements pooled from the literature.
Lines come from different studies, so protocols differ. Numbers after ± are the reported error.

`Cc1noc(C)c1Cn1cc(N2C(=O)CN(Cc3cccc(O)c3)C2=O)cn1` has a remaining parent of 121 % peak area (pooled human liver microsomes; 10 µM, 120 min, pH 7.4).
`COc1ccccc1-c1ccc([C@@H]2[C@@H](C#N)N(C(=O)CN(C)C)[C@H]2CO)cc1` gave an EC50 of 5.2 µM (IDE (Homo sapiens, UniProt P14735); enzyme activity, inhibitor, fluorogenic kinetic; with: Mca-RPPGFSAFK(Dnp)-OH substrate).
`Cc1cc(C)c(CNC(=O)c2cc(Cl)c3c(c2C)O[C@@](C)([C@H]2CC[C@H](N(C)C)CC2)O3)c(=O)[nH]1` has a cumulative excretion of 15.3% (item: total radioactivity; male human, urine; oral, 200 mg, 96 h; reference: dose).
`O=C(Nc1nc2cccc(-c3ccc(CN4CCS(=O)(=O)CC4)cc3)n2n1)C1CC1` — result for “treatment-emergent adverse events”: 0% (item: dysgeusia; human rheumatoid arthritis patients; oral, 75 mg once daily, 4 weeks, regardless of relatedness).
`C[C@H]1CN(C(=O)CC#N)[C@]12CCN(c1ncnc3[nH]ccc13)C2` — result for “participants with serious TEAEs”: 0% (human; oral, 12 mg single dose).
`C=CCn1c(=O)c2cnc(Nc3ccc(N4CCN(C)CC4)cc3)nc2n1-c1ccc2c(n1)[C@@](O)(CC)CC2` has a Cmax of 6380 ng/mL (female NOD/SCID mouse OVCAR-3 xenograft, plasma; oral, 90 mg/kg once daily, :2).
`N#CN1C[C@H](n2nc(-c3ccc(Oc4ccc(Cl)cn4)cc3)c(C(N)=O)c2N)CCC12CC2` gave an AUC(0-24h) of 11400 ± 3070 ng·h/mL (human, fed, plasma; oral, 600 mg).
Under “motor activity score”, `O=C1NCCc2nc(OCc3cccc(F)c3)ccc21` is recorded as 0.8 (modified Irwin test; Sprague-Dawley rat, male; oral, 100 mg/kg, 4 h; higher = stronger change).
`CCC(=O)N1CCOc2c(cc(-c3ccc(OC)c(OC)c3)cc2OC[C@H]2CCCN(C)C2)C1` gave a viability of 101% (HBL-1; 1 µM, 120 h).
For `CCOc1c([C@H](C)n2nc(C)c3c(N)ncnc32)cc(Cl)c(F)c1[C@@H]1CNC(=O)C1`, “share of patients” read 100% (item: QTcF ≤ 450 ms; previously treated B-cell malignancy; oral, dose not given, all doses, overall population).
`OC[C@H]1O[C@@H](c2ccc(F)c(Cc3cc4ccccc4s3)c2)[C@H](O)[C@@H](O)[C@@H]1O` has a renal clearance of 2.07 ± 0.322 mL/min (Japanese type 2 diabetes patients, plasma; oral, 50 mg/day, day 1).
The unbound AUC(0-t) of `CNC(=O)c1ccc(-c2cnc3ncc(Cc4ccc5ncccc5c4)n3n2)cc1F` is reported as 323 ng·h/mL (human severe hepatic impairment; oral, 200 mg single dose, adjusted geometric mean).
`Cc1ccc(Sc2ccccc2N2CCNCC2)c(C)c1` — result for “participants with TEAE”: 0% (item: eosinophil count increased; healthy adult women; oral, 10 mg daily, 12 days).
With `COCc1cc(C(=O)Nc2cc([C@H]3CC[C@@H](OC(=O)NC(C)C)C3)[nH]n2)n(C)n1` the Tmax was 7.5 h (OVCAR-3 xenograft, NOD/SCID gamma mice, plasma; oral, 25 twice daily, tumour growth inhibition study).
`C[C@H]1C=C(Cc2ccccc2)C(=O)O1` — result for “DT50 whole system”: 8.77 days (Staffordshire loam sediment, aerobic dark; 20 °C).
`NC1(C(=O)N[C@@H](CCO)c2ccc(Cl)cc2)CCN(c2nc[nH]c3nccc2-3)CC1` — result for “incidence of Dysuria”: 0% (metastatic CRPC patients; 400 mg b.i.d., grade 3 to 4, treatment-related, with: enzalutamide 160 mg daily).
The viability of `Cc1[nH]c2ccccc2c1CCNCc1ccc(/C=C/C(=O)NO)cc1` is reported as 0.14% (HBL-1; 1 µM, 120 h).
For `O=C(O)c1cccc(C(=O)O)c1`, “apparent dissolution enthalpy” read 6.17 kcal/mol (betaine/propylene glycol DES-water; DES mass fraction 0.10).
`Cn1cncc1-c1c(F)cncc1NC(=O)c1c(N)nn2cc(F)cnc12` — result for “grade ≥2 adverse events”: 25% (patients, advanced solid tumours; oral, 180 mg once daily, 2 weeks on 1 week off; reference: patients).
With `O=C(CCCCCCC(=O)Nc1ccc(CC[18F])cc1)NO` the tissue uptake was 17.9 ± 8.7 %ID/g (athymic nu/nu male mice, LNCaP xenograft, kidney; intravenous, 0.5 h).
`C1=C/COCc2cc(ccc2OCCN2CCCC2)Nc2nccc(n2)-c2cccc(c2)COC/1` has a Vz/F of 155 ± 73.2 L (LC-MS/MS; Sprague-Dawley rat, male, plasma; oral, 36 mg/kg, with: voriconazole 30 mg/kg oral).

Repeated from above:
`O=C(Nc1nc2cccc(-c3ccc(CN4CCS(=O)(=O)CC4)cc3)n2n1)C1CC1` — result for “treatment-emergent adverse events”: 0% (item: dysgeusia; human rheumatoid arthritis patients; oral, 75 mg once daily, 4 weeks, regardless of relatedness).
`C[C@H]1CN(C(=O)CC#N)[C@]12CCN(c1ncnc3[nH]ccc13)C2` — result for “participants with serious TEAEs”: 0% (human; oral, 12 mg single dose).
`C=CCn1c(=O)c2cnc(Nc3ccc(N4CCN(C)CC4)cc3)nc2n1-c1ccc2c(n1)[C@@](O)(CC)CC2` has a Cmax of 6380 ng/mL (female NOD/SCID mouse OVCAR-3 xenograft, plasma; oral, 90 mg/kg once daily, :2).
